Measured values of several laboratories.
Compare with care: the assays were run in different laboratories. “And” joins repeats or separate records; there may be more than shown. Numbers after ± are the reported error.

SMILES | test | test system | setting | how to read | quantity | result
O=C(O)CCC(NP(=O)(O)OCCC[C@@H](NC(=O)CCC(NC(=O)c1ccc([18F])cc1)C(=O)O)C(=O)O)C(=O)O (some centres unmarked) | radioactivity | mouse, CWR22Rv1 xenograft | 1 h | baseline: tumour over blood | tumour to blood ratio | 10 and 9.88
CC(=O)N[C@@H](Cc1ccc(O)cc1)C(=O)N[C@@H](CC(C)C)C(=O)N[C@@H](CS)C(=O)N[C@@H](CO)C(=O)N[C@@H](CO)C(=O)N[C@@H](CC(N)=O)C(=O)N[C@@H](CC(N)=O)C(=O)N[C@@]1(C)CCCC=CCCC[C@@](C)(C(=O)N[C@@H](CCCCN)C(=O)N[C@@H](Cc2ccccc2)C(=O)N[C@@H](CCCNC(=N)N)C(=O)N[C@@H](CCCNC(=N)N)C(=O)NCC(=O)NCC(=O)N[C@@H](CO)C(=O)NCC(=O)NCC(=O)N[C@H](C(=O)N[C@@H](CO)C(=O)N[C@@H](Cc2ccccc2)C(=O)N[C@@]2(C)CCCC=CCCC[C@@](C)(C(=O)N[C@@H](Cc3c[nH]c4ccccc34)C(=O)N[C@@H](CC(C)C)C(=O)N[C@@H](Cc3c[nH]c4ccccc34)C(=O)N3CCC[C@H]3C(N)=O)NC(=O)[C@H](Cc3c[nH]c4ccccc34)NC(=O)[C@H](Cc3ccccc3)NC(=O)[C@H](CCC(N)=O)NC2=O)[C@@H](C)O)NC(=O)[C@H](CCCNC(=N)N)NC(=O)[C@H](CCC(=O)O)NC(=O)[C@H](CCCNC(=N)N)NC1=O |  | mouse, CWR22Rv1 xenograft, tumour |  |  | tumour residence time | > 48 h
CN[C@](C)(C[18F])C(=O)O |  | SCID mouse U87 xenograft | 60 min post injection |  | tumour uptake | 2.8 ± 1 %ID/g
O=C(O)CCC(NP(=O)(O)OCCC[C@@H](NC(=O)CCC(NC(=O)CCCCCNC(=O)c1ccc([18F])cc1)C(=O)O)C(=O)O)C(=O)O (some centres unmarked) | radioactivity | mouse, CWR22Rv1 xenograft | 2 h | baseline: tumour over blood | tumour to blood ratio | 63.6 and 64
CSCC[C@H](NC(=O)CNC(=O)[C@H](CCCCN)NC(=O)[C@H](CC(C)C)NC(=O)[C@@H]1CCCN1C(=O)[C@H](CO)NC(=O)[C@H](Cc1c[nH]cn1)NC(=O)[C@H](Cc1c[nH]c2ccccc12)NC(=O)[C@H](CCCNC(=N)N)NC(=O)[C@H](CC(C)C)NC(=O)[C@H](CCCNC(=N)N)NC(=O)[C@H](Cc1c[nH]c2ccccc12)NC(=O)[C@H](CS)NC(=O)CCCCCNC(=O)CN1CCN(CC(=O)O)CCN(CC(=O)O)CCN(CC(=O)O)CC1)C(=O)O [copper-64 labelled] |  | C57BL/6J mouse, B16-F10 tumour, tumour | intravenous, 1.85 MBq, 2 h |  | tumour uptake | 4.99 %ID/g
CCCC[C@H](NC(=O)CN1CCC(NC(=O)CN2CCC(NC(=O)CN3CCN(CC(=O)O)CCN(CC(=O)O)CCN(CC(=O)O)CC3)CC2)CC1)C(=O)N[C@H]1CC(=O)NCCCC[C@@H](C(N)=O)NC(=O)[C@H](Cc2c[nH]c3ccccc23)NC(=O)[C@H](CCCNC(=N)N)NC(=O)[C@@H](Cc2ccccc2)NC(=O)[C@H](Cc2c[nH]cn2)NC1=O [gallium-68 labelled] | biodistribution | C57BL/6J mouse male tumour-bearing | 1 h post injection, unblocked | baseline: tumour over kidney | tumour to kidney ratio | 1.1 ± 0.3
Cc1cc(Nc2nc(C[C@@]3(C(=O)O)CCN(Cc4cccc(Cl)c4F)[C@H](C)C3)cc(C)c2F)n[nH]1 |  | BALB/c nude mouse, female, NCI-H446 xenograft, tumour | oral, 10 mg/kg, 12 h |  | tumour concentration | < 100 ng/g
CNC(=O)[C@H](CCC(=O)NCCCC[C@@H]1NC(=O)[C@@H](Cc2ccccc2)NC(=O)[C@H](CC(=O)O)NC(=O)CNC(=O)[C@H](CCCNC(=N)N)NC1=O)NC(=O)CN1CCN(CC(=O)O)CCN(CC(=O)O)CCN(CC(=O)O)CC1 [gallium-68 labelled] |  | female nude BALB/c mouse, SK-RC-52 xenograft, tumour | intravenous, 2 h |  | tumour uptake | 3.3 ± 0.3 %ID/g

For quick reference, copied from above:
SMILES | test | test system | setting | how to read | quantity | result
CCCC[C@H](NC(=O)CN1CCC(NC(=O)CN2CCC(NC(=O)CN3CCN(CC(=O)O)CCN(CC(=O)O)CCN(CC(=O)O)CC3)CC2)CC1)C(=O)N[C@H]1CC(=O)NCCCC[C@@H](C(N)=O)NC(=O)[C@H](Cc2c[nH]c3ccccc23)NC(=O)[C@H](CCCNC(=N)N)NC(=O)[C@@H](Cc2ccccc2)NC(=O)[C@H](Cc2c[nH]cn2)NC1=O [gallium-68 labelled] | biodistribution | C57BL/6J mouse male tumour-bearing | 1 h post injection, unblocked | baseline: tumour over kidney | tumour to kidney ratio | 1.1 ± 0.3
